{"data": "Published values gathered from unrelated publications", "note": "Numbered parts are unrelated; each lists some results of a single study. Changes are numbered by the printed parent chain."}
{"data": "Set 1", "target": "Ras GTPase-activating protein-binding protein 1, RRM domain (G3BP1, Homo sapiens, UniProt Q13283)", "technique": "RNA Bind-n-Seq", "molecule type": "RNA", "sample": "in vitro", "tested at": "1 µM", "notes": "whole 134-nt RNA, ends assumed", "added": "150 mM KCl", "relative to": "input library", "direction": "higher = stronger binding", "shared flanks, not repeated": "GGGAGUUCUACAGUCCGACGAUC … UGGAAUUCUCGGGUGUCAAGG", "chain of UniProt Q13283 (whole entry, looked up)": "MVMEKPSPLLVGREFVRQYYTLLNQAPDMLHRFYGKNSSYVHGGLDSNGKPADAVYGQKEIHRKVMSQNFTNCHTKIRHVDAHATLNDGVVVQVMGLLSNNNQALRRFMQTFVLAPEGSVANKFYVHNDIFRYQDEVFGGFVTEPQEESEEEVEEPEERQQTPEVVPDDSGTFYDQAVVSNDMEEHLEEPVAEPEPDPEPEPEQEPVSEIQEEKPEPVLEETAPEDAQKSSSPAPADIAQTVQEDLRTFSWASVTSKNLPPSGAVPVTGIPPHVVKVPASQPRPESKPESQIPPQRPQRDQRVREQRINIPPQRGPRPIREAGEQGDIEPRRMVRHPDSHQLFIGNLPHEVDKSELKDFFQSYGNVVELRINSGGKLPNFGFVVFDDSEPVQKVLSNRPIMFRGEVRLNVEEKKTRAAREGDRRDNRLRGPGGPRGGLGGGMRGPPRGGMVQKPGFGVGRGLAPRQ"}
{"Strand": "AGUCCUGUGCUACACAUCGUAUGUACCGAAUCGGGUUUUUGGGAAAAAAAGGGAGGGAAAGUAUUAUGUUACGCCGUUCGGAUCUGCACU", "log2 enrichment": 0.46}
{"Strand": "CAAGUCCUGUGCUACACAUCGUAUGUACCGAAUCGGGUGGGUUUUUUUGGGAGGGAAAGUAUUAUGUUACGCCGUUCGGAUCUGCACUUC", "log2 enrichment": 0.663}
{"Strand": "UUCACAGCCAGCAGGCAUUGGAAUAUGGCACCAAACUCGUUGGAGGAACCACUCCAGGGAAAGGAGGCCAGACACAUCUGGGCUUACCUG", "log2 enrichment": -0.381}
{"Strand": "UGAUGGGACAACACCCGAAAGGAUAGCACAAAUAACAGGACCUCCAGACCGAUGUCAACAUGCUGCAGAAAUUAUUACAGACCUUCUUCG", "log2 enrichment": 0.0649}
{"Strand": "CUCAAGUCCUGUGCUACACAUCGUAUGUACCGAAUCGGUUGGUUGGGGUUGGGGAAAGUAUUAUGUUACGCCGUUCGGAUCUGCACUUCC", "log2 enrichment": -0.135}
{"Strand": "GCAGGAAGUAAAAACAAAUGGAAAUGCUCCGGAUAGUGGCAGGGGUGGGGGUUGCUAAGGAAAGGGUGGGAUGGGAGUGGGUAAAGAGUU", "log2 enrichment": 1.46}
{"Strand": "UGGGAGGUGGAUUUUGUUUAUUUUUUUAGCUCAUUUCCAGUGGUGGGAAUUUUUUUUUAAUAUGUGUCAUGAAUAAAGUUGUUUUUGAAA", "log2 enrichment": 1.07}
{"Strand": "GCAGGAAGUAAAAACAAAUGGAAAUGCUUCGGAUAGUGGCAGGGGUGGGGGUUGCUAAGGAAAGGGUGGGAGGGGAGUGGGUAAAGAGUU", "log2 enrichment": 0.916}
{"Strand": "UGGGAGGUGGCUUUUGUUUAUUUUUUUAGCUCAUUUCCAGGGGUGGGAAUUUUUUUUUAAUAUGUGUCAUGAAUAAAGUUGUUUUUGAAA", "log2 enrichment": 1.62}
{"Strand": "ACCAUGCAGGUGGGCAUCUUUGGGAAGUGGGGCAAGGGGGGGAUAGGGAGGGGGGUAACACUUUGGGAUCAGGUGGUCCCAGGUCGUUUC", "log2 enrichment": 0.651}
{"Strand": "GCAGGAAGUAAAAACAAAUGGAAAUGCUUCGGAUAGUGGCAAAAGUGGGGGUUGCUAAGGAAAGGGUGGGAUGGGAGUGGGUAAAGAGUU", "log2 enrichment": 1.02}
{"Strand": "CUGUGCUACACAUCGUAUGUACCGAAUCGGGGAAAAAAGGGGAAAAAAGGGGAAAAAAGGGAAAGUAUUAUGUUACGCCGUUCGGAUCUG", "log2 enrichment": 0.0944}
{"data": "Set 2", "target": "Interferon regulatory factor 5, full length, phosphomimetic (IRF5, Homo sapiens, UniProt Q13568-2, residues 1-514, S451D/S453D/S456D/S462D)", "technique": "protein-binding microarray", "molecule type": "double-stranded DNA, one strand shown", "sample": "in vitro", "tested at": "940 nM top", "notes": "60-bp whole probe", "added": "salmon DNA 0.4 mg/ml", "relative to": "random background probes", "direction": "higher = stronger binding", "shared flanks, not repeated": "GCCTAGCAC … GTCTTGATTCGCTTGACGCTGCTG"}
{"Strand": "CCAGACTTGATTTTGGTCTTGTGCTAG", "fitted relative affinity": "-0.0387 z-score"}
{"Strand": "TTAGGACTGCTTTTCCTTAAGTGCTAG", "fitted relative affinity": "-0.237 z-score"}
{"Strand": "GACGGTATCGGGTTTCGGGTCGTGCTA", "fitted relative affinity": "7.32 z-score"}
{"Strand": "TTTCTTTTCCATTTTGTGTTGTGCTAG", "fitted relative affinity": "4.1 z-score"}
{"Strand": "GACGGTTTCTTTATCCTGACGTGCTAG", "fitted relative affinity": "2.45 z-score"}
{"Strand": "TTCATTTTCTTTAACTCATTGTGCTAG", "fitted relative affinity": "1.64 z-score"}
{"Strand": "AATGATTACATATATGTTGGTGTGCTA", "fitted relative affinity": "0.212 z-score"}
{"Strand": "TACGGTCTCCTTTTCCTGACGTGCTAG", "fitted relative affinity": "0.584 z-score"}
{"Strand": "GAGGATTTCAGTATCGAGACGTGCTAG", "fitted relative affinity": "2.08 z-score"}
{"Strand": "GACGGTCTCGGGATCGGGACGTGCTAG", "fitted relative affinity": "1.33 z-score"}
{"Strand": "TTAGAGTTCGGGTTTCGATTAGTGCTA", "fitted relative affinity": "4.8 z-score"}
{"Strand": "TCACTCATACATCTGGGACTGTGCTAG", "fitted relative affinity": "0.374 z-score"}
{"Strand": "TTAGATATCAGGTTCGATTAGTGCTAG", "fitted relative affinity": "0.0718 z-score"}
{"Strand": "TTTTCTTTTCATTACTGCATGTGCTAG", "fitted relative affinity": "1.99 z-score"}
{"Strand": "GACAATTTGGAAACCGAGTGGTGCTAG", "fitted relative affinity": "-0.133 z-score"}
{"Strand": "TTAGATTTCGGGACCGGATTAGTGCTA", "fitted relative affinity": "0.866 z-score"}
{"Strand": "GACGGTTTCCTGCTGCTGACGTGCTAG", "fitted relative affinity": "0.578 z-score"}
{"Strand": "TTAGGACTGCTTCTCCTTCAGTGCTAG", "fitted relative affinity": "-0.207 z-score"}
{"Strand": "GACGGTTTCCTACTGCTGATGTGCTAG", "fitted relative affinity": "0.901 z-score"}
{"Strand": "CTGGCCTGGGGTCTGCAGAGGTGCTAG", "fitted relative affinity": "-0.792 z-score"}
{"Strand": "TTAGGCTTCGACTTTCGGTTAGTGCTA", "fitted relative affinity": "2.05 z-score"}
{"Strand": "GACGGTTTCCTTCTCGTGACGTGCTAG", "fitted relative affinity": "1.91 z-score"}
{"Strand": "TGGACTGTGTGTTTGAGTCTGTGCTAG", "fitted relative affinity": "-0.122 z-score"}
{"Strand": "TCATTATTTTTTTTATTACTGTGCTAG", "fitted relative affinity": "1.6 z-score"}
{"Strand": "GACGGTCTCCGACTGGGGACGTGCTAG", "fitted relative affinity": "-0.737 z-score"}
{"data": "Set 3", "target": "CCNA2, cyclin fold, Cln2 fusion (human)", "technique": "yeast growth competition, sequencing", "sample": "yeast", "notes": "strong parent motif", "relative to": "not given", "direction": "higher = stronger binding", "starting sequence": "RBL2 docking peptide (human); STTRRRLFVENDS; partner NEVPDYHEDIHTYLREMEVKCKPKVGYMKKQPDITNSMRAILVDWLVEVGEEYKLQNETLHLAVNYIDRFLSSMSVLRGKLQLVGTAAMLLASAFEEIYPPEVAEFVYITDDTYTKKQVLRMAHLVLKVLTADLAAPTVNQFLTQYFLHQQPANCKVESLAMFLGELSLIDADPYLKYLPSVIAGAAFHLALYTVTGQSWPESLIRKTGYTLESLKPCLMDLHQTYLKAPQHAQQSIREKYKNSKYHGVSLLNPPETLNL"}
{"Variant": "E10V", "normalised enrichment score": 5.25}
{"Variant": "V9F", "normalised enrichment score": 6.85}
{"Variant": "S1L", "normalised enrichment score": 5.13}
{"Variant": "T2A", "normalised enrichment score": 5.7}
{"Variant": "F8Y", "normalised enrichment score": 2.9}
{"Variant": "R4N", "normalised enrichment score": 1.18}
{"Variant": "L7T", "normalised enrichment score": -0.0222}
{"Variant": "V9L", "normalised enrichment score": 5.35}
{"Variant": "R5K F8L", "normalised enrichment score": 0.488}
{"Variant": "T2H", "normalised enrichment score": 6.26}
{"Variant": "V9G", "normalised enrichment score": 5.5}
{"Variant": "L7F", "normalised enrichment score": 1.61}
{"Variant": "N11A", "normalised enrichment score": 5.17}
{"Variant": "R5Y", "normalised enrichment score": 1.14}
{"Variant": "L7H", "normalised enrichment score": 0.701}
{"Variant": "S1H", "normalised enrichment score": 5.2}
{"Variant": "T3K", "normalised enrichment score": 1.97}
{"Variant": "S13Q", "normalised enrichment score": 4.66}
{"Variant": "E10A", "normalised enrichment score": 4.84}
{"Variant": "V9M", "normalised enrichment score": 6.65}
{"Variant": "R5A L7A", "normalised enrichment score": -0.0829}
{"Variant": "V9C", "normalised enrichment score": 6.43}
{"Variant": "F8N", "normalised enrichment score": 1.78}
{"Variant": "S13D", "normalised enrichment score": 6.31}
{"data": "Set 4", "target": "Sal-like protein 4, full length isoform A (SALL4, Homo sapiens, UniProt Q9UJQ4, residues 1-1053)", "technique": "universal PBM", "molecule type": "double-stranded DNA, one strand shown", "sample": "in vitro", "tested at": "600 nM", "notes": "8-mer, flanks averaged, mean of replicates", "direction": "higher = stronger binding", "chain of UniProt Q9UJQ4 (whole entry, looked up)": "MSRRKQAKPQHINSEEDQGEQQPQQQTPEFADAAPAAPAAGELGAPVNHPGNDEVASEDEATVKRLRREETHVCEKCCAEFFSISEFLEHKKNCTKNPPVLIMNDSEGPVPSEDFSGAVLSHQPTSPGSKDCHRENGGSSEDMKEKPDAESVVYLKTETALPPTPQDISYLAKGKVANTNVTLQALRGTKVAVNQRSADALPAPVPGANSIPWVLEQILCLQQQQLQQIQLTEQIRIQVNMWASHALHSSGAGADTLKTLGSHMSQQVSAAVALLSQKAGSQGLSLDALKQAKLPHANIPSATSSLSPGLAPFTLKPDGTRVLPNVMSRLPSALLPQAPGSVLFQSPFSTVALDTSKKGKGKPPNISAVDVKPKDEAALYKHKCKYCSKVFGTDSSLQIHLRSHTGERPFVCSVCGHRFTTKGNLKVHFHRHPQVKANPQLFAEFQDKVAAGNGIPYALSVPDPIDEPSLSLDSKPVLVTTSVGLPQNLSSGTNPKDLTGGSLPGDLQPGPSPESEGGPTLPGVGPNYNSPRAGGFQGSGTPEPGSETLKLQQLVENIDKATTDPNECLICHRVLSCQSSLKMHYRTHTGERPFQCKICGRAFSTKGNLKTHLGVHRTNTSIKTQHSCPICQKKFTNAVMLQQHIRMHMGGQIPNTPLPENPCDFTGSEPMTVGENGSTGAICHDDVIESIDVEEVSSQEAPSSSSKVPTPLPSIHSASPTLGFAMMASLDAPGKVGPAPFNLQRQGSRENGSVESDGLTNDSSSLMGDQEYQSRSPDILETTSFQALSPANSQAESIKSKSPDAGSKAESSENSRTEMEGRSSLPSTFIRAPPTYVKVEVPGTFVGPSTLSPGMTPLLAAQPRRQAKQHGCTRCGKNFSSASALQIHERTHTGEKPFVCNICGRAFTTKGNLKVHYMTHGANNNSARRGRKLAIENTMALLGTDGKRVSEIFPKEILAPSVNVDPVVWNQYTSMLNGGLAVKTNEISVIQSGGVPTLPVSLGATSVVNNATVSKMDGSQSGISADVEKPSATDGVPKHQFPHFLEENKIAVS"}
{"Strand": "CCCACCAC", "E-score": -0.222}
{"Strand": "CAGAAGGC", "E-score": -0.294}
{"Strand": "CGCGCGGA", "E-score": -0.341}
{"Strand": "AAAATCGC", "E-score": 0.142}
{"Strand": "GCCCTGAC", "E-score": -0.216}
{"Strand": "AATAGCAG", "E-score": 0.0168}
{"Strand": "ACGCTATC", "E-score": 0.00046}
{"Strand": "TAGCCGGA", "E-score": -0.243}
{"Strand": "CGATTTGC", "E-score": -0.0656}
{"Strand": "GAACGAAA", "E-score": 0.0603}
{"Strand": "TCAAATAA", "E-score": 0.345}
{"Strand": "CAGCGTCA", "E-score": -0.221}
{"Strand": "ATCTACCC", "E-score": -0.031}
{"Strand": "AAGATGCT", "E-score": 0.0115}
{"Strand": "GAGCCTTA", "E-score": -0.108}
{"Strand": "ATAGTACG", "E-score": 0.132}
{"data": "Set 5", "target": "UBE2E1 UBC core domain (UniProt P51965)", "technique": "yeast two-hybrid", "sample": "yeast", "notes": "mostly zero background", "relative to": "not given", "direction": "higher = stronger interaction", "B1": "CNOT4 RING domain (UniProt O95628); chain MSRSPDAKEDPVECPLCMEPLEIDDINFFPCTCGYQICRFCWHRIRTDENGLCPACRKPYPED", "B2": "TRIM11 RING domain (UniProt Q96F44); chain LSTNLQEEATCAICLDYFTDPVMTDCGHNFCRECIRRCWGQPEGPYACPECRELSPQRNLRP", "B3": "MKRN3 RING domain (UniProt Q13064); chain FAVQRGMDKVCGICMEVVYEKANPNDRRFGILSNCNHSFCIRCIRRWRSARQFENRIVKSCPQCRVTSELVIPSE", "B4": "NFX1 RING domain (UniProt Q12986); chain IEQLTTEKYECMVCCELVRVTAPVWSCQSCYHVFHLNCIKKWARSPASQADGQSGWRCPACQNVSAHVPNTY", "B5": "HLTF RING domain (UniProt Q14527); chain LILSSGSDEECAICLDSLTVPVITHCAHVFCKPCICQVIQNEQPHAKCPLCRNDIHEDNLLE", "B6": "RNF103 RING domain (UniProt O00237); chain WPADMLHCTECVVCLENFENGCLLMGLPCGHVFHQNCIVMWLAGGRHCCPVCRWPSYKKKQPY", "B7": "RNF182 RING domain (UniProt Q8N6D2); chain AESQASDELECKICYNRYNLKQRKPKVLECCHRVCAKCLYKIIDFGDSPQGVIVCPFCRFETCLPDDEV", "B8": "RUFY1 RING domain (UniProt Q96T51); chain QALKGHAWLKDDEATHCRQCEKEFSISRRKHHCRNCGHIFCNTCSSNELALPSYPKPVRVCDSCHTLLLQRCSSTAS", "chain of UniProt P51965 (whole entry, looked up)": "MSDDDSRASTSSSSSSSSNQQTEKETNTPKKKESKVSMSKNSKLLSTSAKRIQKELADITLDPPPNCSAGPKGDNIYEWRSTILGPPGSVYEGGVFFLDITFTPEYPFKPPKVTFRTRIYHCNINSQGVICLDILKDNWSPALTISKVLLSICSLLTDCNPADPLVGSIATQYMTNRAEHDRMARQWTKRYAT"}
{"Sequence": "B1 (CNOT4 RING domain)", "lacZ reporter activity": 13300}
{"Sequence": "B2 (TRIM11 RING domain)", "lacZ reporter activity": 0}
{"Sequence": "B3 (MKRN3 RING domain)", "lacZ reporter activity": 0}
{"Sequence": "B4 (NFX1 RING domain)", "lacZ reporter activity": 0}
{"Sequence": "LEALSSDFLACKICLEQLRAPKTLPCLHTYCQDCLAQLADGGRVRCPECRETVPVPPEGV (TRIM56 RING domain (UniProt Q9BRZ2))", "lacZ reporter activity": 0}
{"Sequence": "FAEQPSVKLCCQLCCSVFKDPVITTCGHTFCRRCALKSEKCPVDNVKLTVVVNNI (TRAF7 RING domain (UniProt Q6Q0C0))", "lacZ reporter activity": 0}
{"Sequence": "B5 (HLTF RING domain)", "lacZ reporter activity": 0}
{"Sequence": "B6 (RNF103 RING domain)", "lacZ reporter activity": 0}
{"Sequence": "B7 (RNF182 RING domain)", "lacZ reporter activity": 0}
{"Sequence": "B8 (RUFY1 RING domain)", "lacZ reporter activity": 0}
{"Sequence": "DDVLTKDAGECVICLEELLQGDTIARLPCLCIYHKSCIDSWFEVNRSCPEHPAD (ZNRF1 RING domain (UniProt Q8ND25))", "lacZ reporter activity": 10000}
